Measured values pooled from the literature.
Lines come from different studies, so protocols differ. Numbers after ± are the reported error.
rep main protease: Replicase polyprotein 1ab, main protease (rep, Severe acute respiratory syndrome coronavirus 2, UniProt P0DTD1)
rep papain-like protease: Replicase polyprotein 1ab, papain-like protease (rep, Severe acute respiratory syndrome coronavirus 2, UniProt P0DTD1)

O=C(Nc1ccccc1)c1ccccc1[Se][Se]c1ccccc1C(=O)Nc1ccccc1
IC50 (rep main protease; enzyme activity, inhibitor; Mpro, with DTT): 209 µM

Cc1ccc(OCCN(C)C)cc1C(=O)N[C@H](C)c1cc(-c2cnn(C)c2)cc(-c2ccn(C)n2)c1
IC50 (rep papain-like protease; enzyme activity, inhibitor, FRET): 0.122 µM

O=C(c1ccc(Br)cc1)N1CCC(c2ccn3ncc(C(=O)N4CCCCC4)c3c2)CC1
IC50 (Replicase polyprotein 1ab, nsp3 macrodomain (rep, Severe acute respiratory syndrome coronavirus 2, UniProt P0DTD1); ADP-ribose binding, inhibitor, fluorescence polarization; Mac1 domain, SARS-CoV-2): 27.6 ± 11.1 µM

COc1ccc(-c2cc(=O)c3c(O)cc(O)cc3o2)cc1Oc1ccc(-c2cc(=O)c3c(O)cc(O)cc3o2)cc1
IC50 (rep papain-like protease; enzyme activity, inhibitor, fluorescence; pH 8): 22.8 µM

O=C1C=CC(=O)C=C1
IC50 (Replicase polyprotein 1ab, methyltransferase (rep, Severe acute respiratory syndrome coronavirus 2, UniProt P0DTD1); enzyme activity, inhibitor): 3.16 µM

Oc1ccc(/C=N/NC(=S)Nc2ccccc2)c(O)c1
IC50 (rep main protease; enzyme activity, inhibitor, FRET): 8.45 µM

Nc1ncnc2c1ncn2[C@@H]1O[C@H](CSCc2ccc(Cl)cc2Cl)[C@@H](O)[C@H]1O
IC50 (Replicase polyprotein 1ab, nsp16 with nsp10 (rep, Severe acute respiratory syndrome coronavirus 2, UniProt P0DTD1); methyltransferase activity, radiometric; added: 3H-SAM): > 200 µM

O=C(O[C@@H]1Cc2c(O)cc(O)cc2O[C@@H]1c1ccc(O)c(O)c1)c1cc(O)c(O)c(O)c1
IC50 (rep main protease; enzyme activity, inhibitor): 71.8 µM

CN(C)S(=O)(=O)c1ccc2nnn(OCc3ccc(C(C)(C)C)cc3)c2c1
IC50 (rep main protease; enzyme activity, inhibitor): > 100 µM

O=C(Nc1nc2c(s1)CN(Cc1ccccc1)CC2)c1ccc2c(=O)n3c(nc2c1)CCCCC3
IC50 (rep main protease; enzyme activity, inhibitor): ~288 µM

CSC[C@H]1O[C@@H](n2cnc3c(N)ncnc32)[C@H](O)[C@@H]1O
IC50 (Replicase polyprotein 1ab, nsp14 (rep, Severe acute respiratory syndrome coronavirus 2, UniProt P0DTD1); nsp14 methyltransferase activity, inhibitor, radiometric SPA; 20 min, added: 3H-SAM 250 nM, RNA 50 nM): 17 ± 2 µM

CCC(C(=O)Nc1cccc(F)c1)n1c(SCc2ccc(F)cc2)nc2ncccc21 (stereo not drawn)
IC50 (rep papain-like protease; enzyme activity, inhibitor): > 20 µM

CC(C)[C@@H]1CC[C@@H](C)C[C@H]1n1[se]c2ccccc2c1=O
IC50 (rep main protease; enzyme activity, inhibitor): 0.346 µM

Cc1cc(C(=O)COn2nnc3ccc(S(C)(=O)=O)cc32)c(C)n1C
IC50 (rep main protease; enzyme activity, inhibitor, FRET): 5.02 µM

CN(C)CCCCNC(=O)C[C@H](Cc1ccc(F)cc1)NC(=O)[C@@H](Cc1ccccc1Cl)NC(=O)[C@H](N)Cc1ccccc1C#N
IC50 (rep main protease; enzyme activity, inhibitor, fluorescence): 0.2 µM

Some of these lines once more:
O=C(Nc1nc2c(s1)CN(Cc1ccccc1)CC2)c1ccc2c(=O)n3c(nc2c1)CCCCC3
IC50 (rep main protease; enzyme activity, inhibitor): ~288 µM

CSC[C@H]1O[C@@H](n2cnc3c(N)ncnc32)[C@H](O)[C@@H]1O
IC50 (Replicase polyprotein 1ab, nsp14 (rep, Severe acute respiratory syndrome coronavirus 2, UniProt P0DTD1); nsp14 methyltransferase activity, inhibitor, radiometric SPA; 20 min, added: 3H-SAM 250 nM, RNA 50 nM): 17 ± 2 µM
